Measurements from different studies.
Compare with care: the assays were run in different laboratories. ± marks the error that the study gave.

Structure (SMILES) = O=C(O)CN1CCN(Cc2cccc(C(=O)O)n2)CCN(CP(=O)(O)O)CC1; assay = potentiometric titration; setting = aliphatic carboxylate deprotonation; quantity = log Ka; result = 3.22
Structure (SMILES) = Clc1cc2nc(c1)CNCc1cc(Cl)cc(n1)CNC2; assay = protonation constant, potentiometry; setting = 298 K, ionic strength 0.15 M NaCl; quantity = log K2; result = 6.2
Structure (SMILES) = CN(CCNCc1cc(C(=O)[O-])ccc1[O-])CCNCc1cc(C(=O)[O-])ccc1[O-].[Cl-].[Fe+3].[K+].[K+]; assay = measured: Fe(III); setting = 1 weeks, pH 7.4, together with: EDTA competitor; quantity = log conditional stability constant; result = 20.5
Structure (SMILES) = O=C1c2ccc3c4ccc5c6c(ccc(c7ccc(c2c37)C(=O)N1CCN1CCCCC1)c64)C(=O)N(CCN1CCCCC1)C5=O; assay = shake-flask; system = 1-octanol/phosphate buffer; setting = pH 6.0; quantity = log D; result = -2.23 ± 0.24
Structure (SMILES) = Oc1ccnc(-c2cc(O)ccn2)c1.[Cl-].[Cl-].[Ru+2].c1ccc(-c2ccnc3c2ccc2c(-c4ccccc4)ccnc23)cc1.c1ccc(-c2ccnc3c2ccc2c(-c4ccccc4)ccnc23)cc1; setting = pH 7.4; quantity = log D octanol/water; result = > 3
Structure (SMILES) = Cc1cn(CC(=O)N(CCNC(=O)OC(C)(C)C)CC(=O)O)c(=O)[nH]c1=O; assay = IAM chromatography; setting = pH 7.0, 30 °C, extrapolated to 0% acetonitrile; quantity = log kW IAM; result = -0.49
Structure (SMILES) = O=C([O-])CN1CCN(CC(=O)[O-])CCN(CC(O)CN(CC(O)CN2CCN(CC(=O)[O-])CCN(CC(=O)[O-])CCN(CC(=O)[O-])CC2)C[C@H](O)[C@@H](O)[C@H](O)[C@H](O)CO)CCN(CC(=O)[O-])CC1.[Gd+3] (stereo partly shown); assay = pH-potentiometry, measured: Gd(LH-1)M, M = Ca2+; setting = 25 °C, 0.15 M NaCl; quantity = log K; result = 10.3
Structure (SMILES) = NCCN(CC(=O)O)C(=O)Cn1cnc2c(NC(=O)OCc3ccccc3)ncnc21; assay = IAM chromatography; setting = pH 7.0, 30 °C, extrapolated to 0% acetonitrile; quantity = log kW IAM; result = 0.62
Structure (SMILES) = O=C(O)C(Cc1c[nH]cn1)N1C(=O)c2ccc3c4ccc5c6c(ccc(c7ccc(c2c37)C1=O)c64)C(=O)N(C(Cc1c[nH]cn1)C(=O)O)C5=O (stereo not shown); assay = shake-flask; system = 1-octanol/phosphate buffer; setting = pH 7.0; quantity = log D; result = -2.22 ± 0.06
Structure (SMILES) = CCCCC[C@@H]1OC(=O)[C@@H](C)N(C)C(=O)[C@H](CCCCC)OC(=O)[C@@H](C)N(C)C(=O)[C@H](CCCCC)OC(=O)[C@@H](C)N(C)C(=O)[C@H](CCCCC)OC(=O)[C@@H](C)NC1=O; assay = PAMPA; setting = 500 µM, pH 7.4, UV/ELSD/MS detection; quantity = log Papp; result = -5.86
Structure (SMILES) = FC(F)(F)c1cc2nc(c1)CNCc1cc(C(F)(F)F)cc(n1)CNC2; assay = protonation constant, potentiometry; setting = 298 K, ionic strength 0.15 M NaCl; quantity = log K2; result = 6.2
Structure (SMILES) = CCCCC[C@@H]1OC(=O)[C@@H](C)N(C)C(=O)[C@H](CCCCC)OC(=O)[C@@H](C)NC(=O)[C@H](CCCCC)OC(=O)[C@@H](C)NC(=O)[C@H](CCCCC)OC(=O)[C@@H](C)NC1=O; assay = PAMPA; setting = 500 µM, pH 7.4, UV/ELSD/MS detection; quantity = log Papp; result = -5.93
Structure (SMILES) = CN[P+](c1ccccc1)(c1ccccc1)c1ccccc1; assay = HPLC; system = octanol/water; setting = 100 µM; quantity = log P; result = -1.28
Structure (SMILES) = CCCCC[C@@H]1OC(=O)[C@@H](C)N(C)C(=O)[C@H](CCCCC)N(C)C(=O)[C@@H](C)N(C)C(=O)[C@H](CCCCC)OC(=O)[C@@H](C)N(C)C(=O)[C@H](CCCCC)N(C)C(=O)[C@@H](C)N(C)C1=O; assay = PAMPA, HPLC-UV; setting = 500 µM, pH 7.4; quantity = log Papp; result = -5.48 ± 0.03
Structure (SMILES) = O=C(O)CN1CCN(CC(=O)O)CCN(Cc2cccc(P(=O)(O)O)n2)CC1; assay = potentiometric titration; setting = second phosphonate deprotonation; quantity = log Ka; result = 7.09
Structure (SMILES) = NCCN(CC(=O)O)C(=O)Cn1cnc2c(N)ncnc21; assay = IAM chromatography; setting = pH 7.0, 30 °C, extrapolated to 0% acetonitrile; quantity = log kW IAM; result = -0.68
Structure (SMILES) = CCCCC[C@@H]1OC(=O)[C@@H](C)N(C)C(=O)[C@H](CCCCC)OC(=O)[C@@H](C)N(C)C(=O)[C@H](CCCCC)N(C)C(=O)[C@@H](C)N(C)C(=O)[C@H](CCCCC)OC(=O)[C@@H](C)N(C)C1=O; assay = PAMPA; setting = 500 µM, pH 7.4, UV/ELSD/MS detection; quantity = log Papp; result = -5.24
Structure (SMILES) = CN(CCNCc1ccncc1[O-])CCNCc1ccncc1[O-].[Cl-].[Fe+3]; assay = pendant hydroxypyridine nitrogen protonation, UV-vis titration; quantity = log K; result = 5.2
Structure (SMILES) = Fc1cccc(-c2cc3cn[nH]c3nn2)c1F; assay = IAM.PC.DD2 HPLC; setting = pH 7.4; quantity = log k(IAM); result = 1.99
Structure (SMILES) = O=C(O)CN1CCN(CC(=O)O)CCN(CC(O)CN(CC(O)CN2CCN(CC(=O)O)CCN(CC(=O)O)CCN(CC(=O)O)CC2)C[C@H](O)[C@@H](O)[C@H](O)[C@H](O)CO)CCN(CC(=O)O)CC1 (stereo partly shown); assay = pH-potentiometry, measured: Gd2(LH-2), alcoholic OH deprotonation; setting = 25 °C, 0.15 M NaCl; quantity = log K; result = 11.5
Structure (SMILES) = N#C[C@@H]1CC(F)(F)CN1C(=O)CNC(=O)c1ccnc2c(NC(=O)CCOCCOCCOCCOCCOCCOCCNC(=O)[C@H](CCCCNC(=O)CN3CCN(CC(=O)[O-])CCN(CC(=O)[O-])CCN(CC(=O)[O-])CC3)NC(=O)CCCc3ccc(I)cc3)cccc12.[177Lu+3]; system = octanol/PBS; setting = pH 7.4, 177Lu-labelled; quantity = log P; result = -1.22 ± 0.32
Structure (SMILES) = O=C([O-])CN1CCN(CC(=O)O)C[C@H](Cc2ccc(NC(=S)NCCCCC(NC(=O)CCCCCCC(=O)NCCCC[C@H](NC(=O)N[C@@H](CCC(=O)O)C(=O)O)C(=O)O)C(=O)O)cc2)N(CC(=O)[O-])Cc2cccc(n2)C1.[64Cu+2] (stereo partly shown); system = octanol/water; quantity = log P; result = -1.42
Structure (SMILES) = CCCCC[C@@H]1OC(=O)[C@@H](C)N(C)C(=O)[C@H](CCCCC)OC(=O)[C@@H](C)N(C)C(=O)[C@H](CCCCC)OC(=O)[C@@H](C)NC(=O)[C@H](CCCCC)OC(=O)[C@@H](C)NC1=O; assay = PAMPA; setting = 500 µM, pH 7.4; quantity = log Papp; result = 4.07 ×10⁻⁶ cm/s
Structure (SMILES) = c1n[nH]c2nnc(N3CCCCC3)cc12; assay = IAM.PC.DD2 HPLC; setting = pH 7.4; quantity = log k(IAM); result = 2.56
Structure (SMILES) = CCCCC[C@@H]1OC(=O)[C@@H](C)NC(=O)[C@H](CCCCC)OC(=O)[C@@H](C)NC(=O)[C@H](CCCCC)OC(=O)[C@@H](C)NC(=O)[C@H](CCCCC)OC(=O)[C@@H](C)NC1=O; assay = PAMPA, HPLC-UV; setting = 500 µM, pH 7.4; quantity = log Papp; result = -5.46 ± 0.07
Structure (SMILES) = N#C[C@@H]1CC(F)(F)CN1C(=O)CNC(=O)c1ccnc2c(NC(=O)[C@@H](N)CCCCNC(=O)CCOCCOCCOCCOCCOCCOCCNC(=O)CN3CCN(CC(=O)[O-])CCN(CC(=O)[O-])CCN(CC(=O)[O-])CC3)cccc12.[177Lu+3]; system = octanol/PBS; setting = pH 7.4, 177Lu-labelled; quantity = log P; result = -2.24 ± 0.12
Structure (SMILES) = CCCCC[C@@H]1OC(=O)[C@@H](C)N(C)C(=O)[C@H](CCCCC)OC(=O)[C@@H](C)NC(=O)[C@H](CCCCC)OC(=O)[C@@H](C)N(C)C(=O)[C@H](CCCCC)OC(=O)[C@@H](C)NC1=O; assay = PAMPA, HPLC-UV; setting = 500 µM, pH 7.4; quantity = log Papp; result = -5.94 ± 0.02
Structure (SMILES) = O=C(O)c1cccc(CN2CCCNCCNCCCNCC2)n1; assay = potentiometry; system = aqueous 1.0 M KCl; setting = 25 °C, L + H+ to HL; quantity = log overall protonation constant; result = 11.1

For quick reference, copied from above:
Structure (SMILES) = CCCCC[C@@H]1OC(=O)[C@@H](C)N(C)C(=O)[C@H](CCCCC)OC(=O)[C@@H](C)N(C)C(=O)[C@H](CCCCC)OC(=O)[C@@H](C)N(C)C(=O)[C@H](CCCCC)OC(=O)[C@@H](C)NC1=O; assay = PAMPA; setting = 500 µM, pH 7.4, UV/ELSD/MS detection; quantity = log Papp; result = -5.86
Structure (SMILES) = FC(F)(F)c1cc2nc(c1)CNCc1cc(C(F)(F)F)cc(n1)CNC2; assay = protonation constant, potentiometry; setting = 298 K, ionic strength 0.15 M NaCl; quantity = log K2; result = 6.2
